Assay results gathered from unrelated publications.
Parts stem from different laboratories: compare values within a part only. Positions count from the first letter of the parent shown.

Set 1 — method: DHFR PCA, deep sequencing; matrix: yeast; added: (+)-ABA 0 µM; relative to: wild-type fitted maximum; reading: higher = stronger binding
Target: ABI1, truncated, D143A, DHFR fusion (Arabidopsis thaliana)
Setting: methotrexate growth selection, single substitutions
Starting sequence: PYL1, truncated, DHFR fusion (Arabidopsis thaliana); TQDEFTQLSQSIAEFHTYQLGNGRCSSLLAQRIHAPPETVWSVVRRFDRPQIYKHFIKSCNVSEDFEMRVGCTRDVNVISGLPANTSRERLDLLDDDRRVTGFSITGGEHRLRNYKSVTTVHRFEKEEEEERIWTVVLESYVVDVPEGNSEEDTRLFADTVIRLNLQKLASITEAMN; partner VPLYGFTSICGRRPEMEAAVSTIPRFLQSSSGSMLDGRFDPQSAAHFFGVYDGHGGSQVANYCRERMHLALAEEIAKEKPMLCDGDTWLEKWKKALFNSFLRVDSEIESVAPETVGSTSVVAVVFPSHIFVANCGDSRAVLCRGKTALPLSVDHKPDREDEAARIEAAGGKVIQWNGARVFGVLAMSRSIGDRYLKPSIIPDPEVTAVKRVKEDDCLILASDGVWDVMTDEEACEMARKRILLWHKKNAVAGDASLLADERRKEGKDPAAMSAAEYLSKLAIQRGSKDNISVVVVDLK
Variant | relative binding score
Q19K | 39.6%
P83T | 16.6%
V78E | -1.62%
I52W | 7.26%
D159Q | -3.77%
Y115F | 19.2%
L156M | 23.7%
D95P | -0.568%
L169R | 0.54%
E89K | 6.13%
V70L | 1.79%
V142M | -4.32%
V78G | 8.59%

Set 2 — method: protein binding microarray; form: double-stranded DNA, one strand shown; matrix: in vitro; concentration: not given; relative to: not given; reading: higher = stronger binding
Target: Histone acetyltransferase KAT6A, winged helix 1, GST fusion (KAT6A, Homo sapiens, UniProt Q92794, residues 1-85)
Setting: 8-mer, flanks averaged, mean of 2 arrays, mostly near background
Construct (chain): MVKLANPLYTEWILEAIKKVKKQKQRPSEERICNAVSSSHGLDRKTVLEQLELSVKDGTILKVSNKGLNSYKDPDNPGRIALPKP
Oligonucleotide | E-score
GTGCGAAC | 0.125
CCGGTGGC | 0.211
GGGAGGAC | 0.0635
ATTCTTGG | -0.0309
GATCCGAA | -0.155
TAAGACTA | -0.214
GGGCGCCA | 0.202
ACCTCTCT | -0.229
CTCCAGAA | -0.213
ACTCCATG | -0.069
ACTTCTGA | -0.118
CGCTGAAG | 0.146
ACATCCCT | -0.0653
ATAATGAA | -0.258
GAATGCCA | -0.00607

Set 3 — method: aptamer microarray, sandwich; form: DNA with 2'F-ANA; matrix: in vitro; concentration: 200 nM; added: Cy3 exosite-II aptamer, 400 nM; reading: higher = stronger binding; oligonucleotide: GGTTGGTGTGGTTGG
Target: Prothrombin, mature alpha-thrombin (F2, Homo sapiens, UniProt P00734)
Setting: whole 15-mer aptamer, many near background
Modification | mean fluorescence intensity
2'F-ANA at 1 4 5 6 11 13 15 | 64.2 a.u.
2'F-ANA at 1 2 3 4 5 7 10 12 14 | 46.8 a.u.
2'F-ANA at 4 8 10 11 15 | 74.8 a.u.
2'F-ANA at 1 3 4 6 7 9 11 14 15 | 83.9 a.u.
2'F-ANA at 4 5 7 8 12 13 | 109 a.u.
2'F-ANA at 1 3 4 7 8 9 12 13 14 | 79.1 a.u.
2'F-ANA at 1 2 5 11 12 14 | 46.1 a.u.
2'F-ANA at 5 6 8 9 10 12 13 15 | 52.1 a.u.
2'F-ANA at 2 5 6 7 12 13 14 | 47 a.u.
2'F-ANA at 3 4 5 8 9 11 12 13 14 15 | 52.9 a.u.
2'F-ANA at 2 3 6 9 10 11 12 13 14 | 244 a.u.
2'F-ANA at 2 3 4 5 9 10 11 15 | 53.2 a.u.
2'F-ANA at 1 3 4 6 8 9 10 11 13 15 | 63 a.u.
2'F-ANA at 1 3 4 5 6 12 13 14 | 48 a.u.
2'F-ANA at 1 2 5 6 8 13 14 15 | 54.6 a.u.
2'F-ANA at 1 3 4 5 9 11 12 13 14 15 | 51 a.u.

Set 4 — method: RNA Bind-n-Seq; form: RNA; matrix: in vitro; concentration: 200 nM; setting: whole 134-nt RNA, ends assumed; added: 150 mM KCl; relative to: input library; reading: higher = stronger binding
Target: Fragile X messenger ribonucleoprotein 1, C-terminal low-complexity region (Fmr1, Mus musculus, UniProt P35922)
Constant ends, left off below: GGGAGUUCUACAGUCCGACGAUC … UGGAAUUCUCGGGUGUCAAGG
Oligonucleotide | log2 enrichment
AAGUCCUGUGCUACACAUCGUAUGUACCGAAUCGGUUUUUGGUUUUUGGUUUUUGGAAAGUAUUAUGUUACGCCGUUCGGAUCUGCACUU | -0.835
UCCUGUGCUACACAUCGUAUGUACCGAAUCGGGAAAAAAAGGGAAAAAAAGGGAAAGGGAAAGUAUUAUGUUACGCCGUUCGGAUCUGCA | -0.127
UCCUGUGCUACACAUCGUAUGUACCGAAUCGGUUUUUUGGGGUUUUUUGGGGUUUUUUGGAAAGUAUUAUGUUACGCCGUUCGGAUCUGC | 0.0133
AAGUCCUGUGCUACACAUCGUAUGUACCGAAUCGGGGAGGGGUUUUUGGGGUGGGGAAAGUAUUAUGUUACGCCGUUCGGAUCUGCACUU | 1.17
GUCCUGUGCUACACAUCGUAUGUACCGAAUCGGGAAAAAAAGGGUUUUUGGGUUUGGGAAAGUAUUAUGUUACGCCGUUCGGAUCUGCAC | -0.318
UCCUGUGCUACACAUCGUAUGUACCGAAUCGGCCCCCCCGGGCCCCCCCGGCCCCCCCGGAAAGUAUUAUGUUACGCCGUUCGGAUCUGC | 0.261
UCAAGUCCUGUGCUACACAUCGUAUGUACCGAAUCGGGGUUGGGGUUGGGUUGGAAAGUAUUAUGUUACGCCGUUCGGAUCUGCACUUCC | 0.15

Set 5 — method: universal PBM; form: double-stranded DNA, one strand shown; matrix: in vitro; concentration: not given; reading: higher = stronger binding
Target: Sal-like protein 4, full length isoform B (SALL4, Homo sapiens, UniProt Q9UJQ4-2, residues 1-616)
Setting: 8-mer, flanks averaged, mean of replicates
Oligonucleotide | E-score
CGGCTAAG | -0.212
AAAGTTAC | 0.106
CCACCTGG | -0.285
CGGCCTTA | -0.0659
ACTAGTCC | -0.0591
AAATGCGG | -0.168
CCTCAACA | 0.141
CCTCATGC | -0.116
CAATGTGG | -0.00149
GCGTCGAA | -0.101
AACAAGTG | -0.0222
ACAGCGTA | -0.12
AAGTAGCT | -0.0233
CCAAGTAA | 0.0995
GCCTAGGC | -0.222
ATAAGATA | 0.301
AGACCTCG | -0.143
GCCGCTGA | -0.162
AGTATTCA | 0.226
CTTGGCGA | -0.301
ATGTAGTC | 0.193
CGTAGATA | 0.106
CATGTAAG | 0.148
ACGCTAGT | 0.00133
CTTCGCAC | -0.0437

Set 6 — method: protein-binding microarray; form: double-stranded DNA, one strand shown; matrix: in vitro; concentration: not given; reading: higher = stronger binding
Target: Protein max, full length (MAX, Homo sapiens, UniProt P61244-2, residues 1-151)
Setting: k-mer, scored over probes, only values ≥0.25
Oligonucleotide | E-score
ACGAGCAC | 0.307
CGCATTGC | 0.268
CGTGACCC | 0.371
CATGGTCA | 0.373
CGTGTATC | 0.348
CACGCCCA | 0.347
GTGTGTTA | 0.266
CATCGATG | 0.273
ACGTGCAC | 0.457
ACGCGGGG | 0.324
ACGCTGAT | 0.285
GGCGTGGA | 0.348
AGCGTGAC | 0.435

Set 7 — method: protein-binding microarray; form: double-stranded DNA, one strand shown; matrix: in vitro; concentration: 250 nM; setting: 60-bp whole probe; added: salmon DNA 0.4 mg/ml; relative to: random background probes; reading: higher = stronger binding; constant ends, left off below: GCCTAGCAC … GTCTTGATTCGCTTGACGCTGCTG
Target: Interferon regulatory factor 5, full length, phosphomimetic (IRF5, Homo sapiens, UniProt Q13568-2, residues 1-514, K96S/S451D/S453D/S456D/S462D)
Oligonucleotide | log fluorescence [z-score]
TTAGTTATCAGACTGGATTAGTGCTAG | 0.381
TCACAATTCTTTTTATGACTGTGCTAG | 1.1
TTAGGACTGGGGTATCGATTAGTGCTA | 1.82
GACGAACTGCGGTATCGAGACGTGCTA | 0.245
TCAGTTACGGAATTTCCCACTGTGCTA | 0.546
GACGGACTGGGTTTCGGCACGTGCTAG | 2.34
TTAGCTTTCAGTCTCGATTAGTGCTAG | 6.55
TTAGGACTGGTTATCGGTTAGTGCTAG | 3.96
TTAGACCTGGGGACTGGATTAGTGCTA | -0.617
GCAGGGTATAGGCATTCCCTGTGCTAG | -0.805
GACGATTTCCGACTGGAGACGTGCTAG | 0.362
CTTGCTTTATGTGTAGGTCTGTGCTAG | -0.205
TACGGACTGGACTTTCGGGACGTGCTA | 4.3
TTAGGTATCCTTATCCATTAGTGCTAG | 0.365
TTAGGTATCCTTTTCCTCTAGTGCTAG | 0.476
CTTGTTTCCAGTATATTTAAGTGCTAG | 1.36
GACGTTCTCGGTCTCGGGACGTGCTAG | 0.507
GACGGTATCGGTCTCGGGGCGTGCTAG | 4.94
ATAGGACTGGGTCTCGGTTAGTGCTAG | -0.118
TTAGAACCGGGGACTGGATTAGTGCTA | -0.223
TTCACTTTAACTTATTCTCTAGTGCTA | 1.34
GACGGTATCCATCTCCTGACGTGCTAG | 0.0221
TTCAATTTTTGCATCGTAAGGTGCTAG | 0.916
GACGATCTCAGACTAGAGACGTGCTAG | -0.351

For quick reference, copied from above (set 1):
Variant | relative binding score
V142M | -4.32%
E89K | 6.13%
V78G | 8.59%
P83T | 16.6%
L156M | 23.7%
V70L | 1.79%
Y115F | 19.2%
D159Q | -3.77%
I52W | 7.26%
Q19K | 39.6%
